Results pooled from the literature.
A part holds a random share of what one study measured. Values joined by “and” are separate records of one study, mostly repeats; a detail may differ.

Series 1
Target: Bromodomain-containing protein 4, BD1 (BRD4, Homo sapiens, UniProt O60885)
Read-out: acetyl-histone H4 peptide binding
Method: AlphaScreen displacement
Concentration: 50 µM
For `O=C1NC(=O)N(c2ccc(F)cc2)C(=O)C1=CNc1ccc2c(c1)OCO2`, the inhibition was 6.45%.
`COc1ccc(NC=C2C(=O)NC(=O)N(c3ccc(C)cc3)C2=O)cc1` has an inhibition of 13.1%.
With `CC(=O)c1cccc(NC=C2C(=O)NC(=O)N(c3ccccc3)C2=O)c1` the inhibition was 9%.

Series 2
Target: Calcium/calmodulin-dependent protein kinase type II subunit alpha (CAMK2A, Homo sapiens, UniProt Q9UQM7)
Sequence of UniProt Q9UQM7 (whole entry, looked up): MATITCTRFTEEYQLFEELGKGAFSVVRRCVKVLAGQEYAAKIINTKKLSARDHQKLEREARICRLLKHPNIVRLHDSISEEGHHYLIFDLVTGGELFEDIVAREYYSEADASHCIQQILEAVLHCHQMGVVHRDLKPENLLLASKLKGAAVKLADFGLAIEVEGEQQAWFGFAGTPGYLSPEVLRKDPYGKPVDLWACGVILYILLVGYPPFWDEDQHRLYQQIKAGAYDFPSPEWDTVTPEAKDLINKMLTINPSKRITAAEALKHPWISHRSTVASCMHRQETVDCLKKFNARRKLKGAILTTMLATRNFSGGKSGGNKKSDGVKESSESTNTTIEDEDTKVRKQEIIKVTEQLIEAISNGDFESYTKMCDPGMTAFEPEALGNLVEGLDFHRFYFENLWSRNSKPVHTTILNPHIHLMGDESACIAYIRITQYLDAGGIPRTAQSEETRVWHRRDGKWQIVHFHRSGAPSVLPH
Read-out: enzyme activity
Mode: inhibitor
Concentration: 10 µM
For `CC(=O)O[C@H]1C(C)=C[C@]23C(=O)[C@@H](C=C(C)[C@@H](OC(=O)c4ccccc4)[C@]12O)[C@H]1[C@@H](C[C@H]3C)C1(C)C`, the inhibition was -17%.
For `C[C@]12CC[C@@H](O)C[C@@H]1CC[C@@H]1[C@@H]2CC[C@]2(C)C(=O)CC[C@@H]12`, the inhibition was -38%.
With `CC(C)=CCC[C@](C)(O)[C@H]1CC[C@]2(C)[C@@H]1[C@H](O)C[C@@H]1[C@@]3(C)CC[C@H](O)C(C)(C)[C@@H]3[C@@H](O[C@@H]3O[C@H](CO)[C@@H](O)[C@H](O)[C@H]3O)C[C@]12C` the inhibition was -14%.

Series 3
Structure (SMILES): CC(C)S(=O)(=O)c1ccc2nccc(Nc3ccc4sc(C5CCCC5)nc4c3)c2c1.Cl
L929; CCK-8; 1.563 µM — viability: 102% and 98.7% and 97.5%.
L929; CCK-8; 6.25 µM — viability: 110% and 106% and 102% and 101% and 111%.
L929 RIPK3 knockout; 0.391 µM — viability: 97.7% and 103% and 113% and 106% and 107%.
For L929; CCK-8; 25 µM, together with: zVAD: viability read 89% and 89.7% and 88.5%.
For L929; CCK-8; 6.25 µM, together with: zVAD: viability read 108% and 106% and 99.5% and 102%.
The viability was 97% and 102% and 109% and 106% and 101% (L929 RIPK3 knockout; 12.5 µM).
For L929 RIPK3 knockout; 1.563 µM: viability read 106% and 101% and 104% and 96.2% and 97.1%.
It gave 91.8% and 95.9% and 92.8% and 94.3% for viability (L929 RIPK3 knockout; 25 µM).
L929 RIPK3 knockout; 25 µM, together with: zVAD — viability: 93% and 94.3% and 92.7%.

Mixed results
STK33: Serine/threonine-protein kinase 33 (STK33, Homo sapiens, UniProt Q9BYT3)
Sequence of UniProt Q9BYT3 (whole entry, looked up): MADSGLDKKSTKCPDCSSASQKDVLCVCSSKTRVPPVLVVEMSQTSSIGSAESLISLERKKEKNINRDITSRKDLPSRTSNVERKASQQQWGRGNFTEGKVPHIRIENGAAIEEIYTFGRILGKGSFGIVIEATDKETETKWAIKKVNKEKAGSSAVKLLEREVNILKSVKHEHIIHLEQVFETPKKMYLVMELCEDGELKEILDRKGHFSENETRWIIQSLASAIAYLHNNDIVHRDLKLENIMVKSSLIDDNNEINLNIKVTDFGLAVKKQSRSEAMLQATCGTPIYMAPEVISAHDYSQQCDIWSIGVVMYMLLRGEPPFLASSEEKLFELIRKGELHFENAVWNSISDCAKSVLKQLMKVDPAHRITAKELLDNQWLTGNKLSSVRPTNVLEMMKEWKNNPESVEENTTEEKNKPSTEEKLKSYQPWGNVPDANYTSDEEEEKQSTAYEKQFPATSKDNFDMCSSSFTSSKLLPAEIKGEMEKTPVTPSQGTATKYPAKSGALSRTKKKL
The remaining activity of `CCCCc1c(-c2ccc(OC)cc2)[nH]c2nccnc12` is reported as 84.6% (STK33; enzyme activity, inhibitor, radiometric; 0.5 µM).
`Cc1sc2c(c1C)C(c1ccc(Cl)cc1)=NC(CC(=O)OC(C)(C)C)c1nnc(C)n1-2` (stereo not shown) has a nuclei count of -2.73 z-score (mouse MPNST tumor cells; high-content nuclear imaging, refers to: cell number; 10 µM, 12 h, mean of 2 replicates; baseline: plate mean, higher = more cells).
For `CN1CCN(c2ccc3nc(-c4c(N)c5c(F)cccc5[nH]c4=O)[nH]c3c2)CC1`, the remaining activity was 60.7% (STK33; enzyme activity, inhibitor, radiometric; 0.5 µM).
`N#Cc1cnc2cnc(NCc3cccnc3)cc2c1Nc1ccc(F)c(Cl)c1` gave a remaining activity of 87.4% (STK33; enzyme activity, inhibitor, radiometric; 0.5 µM).

For quick reference, copied from above (series 2):
For `CC(=O)O[C@H]1C(C)=C[C@]23C(=O)[C@@H](C=C(C)[C@@H](OC(=O)c4ccccc4)[C@]12O)[C@H]1[C@@H](C[C@H]3C)C1(C)C`, the inhibition was -17%.
For `C[C@]12CC[C@@H](O)C[C@@H]1CC[C@@H]1[C@@H]2CC[C@]2(C)C(=O)CC[C@@H]12`, the inhibition was -38%.
With `CC(C)=CCC[C@](C)(O)[C@H]1CC[C@]2(C)[C@@H]1[C@H](O)C[C@@H]1[C@@]3(C)CC[C@H](O)C(C)(C)[C@@H]3[C@@H](O[C@@H]3O[C@H](CO)[C@@H](O)[C@H](O)[C@H]3O)C[C@]12C` the inhibition was -14%.
